{"data": "Experimental data gathered from unrelated publications", "note": "Compare with care: the assays were run in different laboratories."}
{"Compound": "CN[C@@H](C)C(=O)N[C@H]1CN(S(=O)(=O)c2cccc(S(=O)(=O)N3CC[C@H]4CC[C@@H](C(=O)NC(c5ccccc5)c5ccccc5)N4C(=O)[C@@H](NC(=O)[C@H](C)NC)C3)c2)CC[C@H]2CC[C@@H](C(=O)NC(c3ccccc3)c3ccccc3)N2C1=O", "system": "human, advanced solid tumours", "setting": "20 mg", "endpoint": "patients with treatment-related asthenia", "value": "0%"}
{"Compound": "C[C@@H]1OC(=O)NN=C1c1ccc(-c2ccc(F)cc2)c(C(F)(F)F)c1", "test": "phase I trial, measured: Presyncope worst grade 2", "system": "human patients", "setting": "20 mg loading then 1 mg daily", "endpoint": "patients with adverse event", "value": "0%"}
{"Compound": "Cn1cncc1-c1c(F)cncc1NC(=O)c1c(N)nn2cc(F)cnc12", "system": "human patients", "setting": "oral, 220 mg once daily, 2 weeks on 1 week off", "endpoint": "patients grade ≥3 Hyponatremia", "value": "0%"}
{"Compound": "COc1c(C)cnc(Cn2cc(C#CCCOP(=O)(O)O)c3c(Cl)nc(N)nc32)c1C", "test": "measured: vomiting", "system": "human, advanced solid tumours", "setting": "concentration not given, at least possibly drug-related", "endpoint": "patients with adverse event", "value": "29%"}
{"Compound": "O=C([O-])CN1CCN(CC(=O)[O-])CCN(CC(=O)NCC2CCC(C(=O)N[C@@H](Cc3ccc4ccccc4c3)C(=O)NCCCC[C@H](NC(=O)N[C@@H](CCC(=O)O)C(=O)O)C(=O)O)CC2)CCN(CC(=O)[O-])CC1.[177Lu+3] (stereo partly drawn)", "test": "99mTc-DTPA plasma clearance", "system": "human", "setting": "concentration not given", "endpoint": "patients with GFR increase", "value": "26%"}
{"Compound": "CN(C)C(=O)c1cc2cnc(Nc3ccc(N4CCNCC4)cn3)nc2n1C1CCCC1", "test": "measured: interstitial lung disease or pneumonitis", "system": "human, HR+/HER2− advanced breast cancer", "setting": "oral, dose not given, grade 4, CTCAE v4.03", "endpoint": "patients with adverse event", "value": "0%"}
{"Compound": "Cn1ncc(-c2nc(N[C@H]3CC[C@H](N)CC3)ncc2Cl)c1CC1CC1", "test": "measured: treatment-related Diarrhea", "system": "human patients phase I", "setting": "dose not given", "endpoint": "patients with adverse events", "value": "12.9%"}
{"Compound": "NC(=O)[C@H]1CCN(c2ncnc(N)c2F)C[C@@H]1N1CCC[C@@H](Nc2cc(Cl)cc(C(F)(F)F)c2)C1=O", "system": "human patients", "setting": "oral, 20.5 mg twice daily, grade ≥3", "endpoint": "patients with anemia", "value": "100%"}
{"Compound": "C=CCNc1c(O)cc2c(O)c1C[C@@H](C)C[C@H](OC)[C@H](O)[C@@H](C)/C=C(\\C)[C@H](OC(N)=O)[C@@H](OC)/C=C\\C=C(/C)C(=O)N2", "system": "human unresectable metastatic GIST or sarcoma", "setting": "intravenous, dose not given", "endpoint": "patients with serious adverse events", "value": "37%"}
{"Compound": "COc1ccc(-c2c(-c3ccc(C#N)c(F)c3)nc(N3CCC(N)CC3)n(C)c2=O)cc1F", "test": "measured: pulmonary hemorrhage", "system": "human patients", "setting": "oral, dose not given, dose escalation", "endpoint": "patients with serious TEAE", "value": "0%"}
{"Compound": "CCN(Cc1nc2c(N)nc3cc(-c4cc[nH]n4)ccc3c2[nH]1)C(C)=O", "test": "grade 1-2 fever", "system": "human", "setting": "intratumoral, dose not given", "endpoint": "patients with adverse event", "value": "79%"}
{"Compound": "CCNCCCNC/C=C\\CNCCCNCC", "system": "human, advanced solid tumours", "setting": "intravenous, dose not given", "scale": "reference: patients", "endpoint": "patients with dizziness", "value": "~10%"}
{"Compound": "O=C(c1ccc(F)c(F)c1Nc1ccc(I)cc1F)N1CC(O)([C@@H]2CCCCN2)C1", "system": "human patients", "setting": "oral, 1 mg/kg, patients aged at least sample B years", "endpoint": "patients with AE leading to withdrawal", "value": "0%"}
{"Compound": "C[C@]1(O)C[C@@](N)(c2ccc(-c3nc4n(c3-c3ccccc3)COc3ccncc3-4)cc2)C1", "system": "human, advanced or metastatic solid tumours", "setting": "dose not given, intermittent dose escalation total", "endpoint": "patients with grade ≥3 TEAE", "value": "85.7%"}
{"Compound": "CCS(=O)(=O)Nc1ccc(Oc2ccc(F)cc2F)c(-c2cn(C)c(=O)c3[nH]ccc23)c1", "test": "measured: Dehydration", "system": "human, relapsed/refractory AML", "setting": "oral, dose not given, trial, with: alone or with venetoclax", "endpoint": "patients with serious adverse event", "value": "5%"}
{"Compound": "Cc1cn([C@H]2O[C@@H](CO[P@@](=O)(N[C@@H](C)C(=O)OC(C)C)Oc3ccccc3)[C@H](O)[C@H]2F)c(=O)[nH]c1=O", "test": "measured: grade 1/2", "system": "human", "setting": "10 mg", "endpoint": "patients with decreased platelets", "value": "0%"}
{"Compound": "O=C1Nc2cc3[nH]nc(-c4ccncc4)c3cc2CN1Cc1ccccc1", "test": "CTCAE v4.03", "system": "human, relapsed or refractory advanced solid tumours", "setting": "intravenous, 4.8 mg/kg", "endpoint": "patients with photopsia", "value": "0%"}
{"Compound": "C=CC(=O)Nc1cc(Nc2nccc(Nc3cc(Cl)c(F)cc3C(C)(C)O)n2)c(OC)cc1N1CC[C@@H](N(C)C)C1", "system": "human patients", "setting": "oral, 200 mg, treatment-emergent adverse events", "endpoint": "patients with anaemia", "value": "25%"}
{"Compound": "COc1ncnn2ccc(-c3cnc4nc(C)n(Cc5nnc([C@@H](C)F)o5)c4c3)c12", "system": "human", "setting": "oral, dose not given, grade 4", "endpoint": "patients with pyrexia", "value": "0%"}
{"Compound": "CCN(CCO)CCCC(C)Nc1ccnc2cc(Cl)ccc12 (stereo not drawn)", "system": "human, newly diagnosed glioblastoma", "setting": "oral, 400 mg/dose, platelet decrease grade 1, with RT and TMZ", "endpoint": "patients with adverse event", "value": "29%"}
{"Compound": "CCN1[C@@H](C(=O)NC23CCC(C(=O)O)(CC2)CC3)[C@H](c2cccc(Cl)c2F)[C@]2(C(=O)Nc3cc(Cl)ccc32)C12CCCCC2", "test": "measured: any-grade treatment-related oral mucositis", "system": "human, advanced solid tumours", "setting": "dose not given, phase I, all patients", "endpoint": "patients with adverse event", "value": "4.8%"}
{"note": "Repeated from above:"}
{"Compound": "O=C([O-])CN1CCN(CC(=O)[O-])CCN(CC(=O)NCC2CCC(C(=O)N[C@@H](Cc3ccc4ccccc4c3)C(=O)NCCCC[C@H](NC(=O)N[C@@H](CCC(=O)O)C(=O)O)C(=O)O)CC2)CCN(CC(=O)[O-])CC1.[177Lu+3] (stereo partly drawn)", "test": "99mTc-DTPA plasma clearance", "system": "human", "setting": "concentration not given", "endpoint": "patients with GFR increase", "value": "26%"}
{"Compound": "Cn1ncc(-c2nc(N[C@H]3CC[C@H](N)CC3)ncc2Cl)c1CC1CC1", "test": "measured: treatment-related Diarrhea", "system": "human patients phase I", "setting": "dose not given", "endpoint": "patients with adverse events", "value": "12.9%"}
{"Compound": "CCN(Cc1nc2c(N)nc3cc(-c4cc[nH]n4)ccc3c2[nH]1)C(C)=O", "test": "grade 1-2 fever", "system": "human", "setting": "intratumoral, dose not given", "endpoint": "patients with adverse event", "value": "79%"}
